Measurements of several laboratories.
Numbered parts are unrelated; each lists some results of a single study.

Sample 1 — method: RNA Bind-n-Seq; form: RNA; sample: in vitro; concentration: 365 nM; baseline: no-protein control; direction: higher = stronger binding
Target: RNA binding protein fox-1 homolog 2, RRM domain, GST-SBP tag (RBFOX2, Homo sapiens, UniProt O43251-10, residues 100-194)
Notes: natural RNA segment, single round, ends assumed
Target sequence (chain): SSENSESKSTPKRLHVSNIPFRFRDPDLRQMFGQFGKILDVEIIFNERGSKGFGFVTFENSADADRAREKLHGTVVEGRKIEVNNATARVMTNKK
Sequence	RBNS enrichment (R)
GGGAGUUCUACAGUCCGACGAUCCAAUGUCCACCCCUGCCUCCCCUUCACUGGGGACUGGGGUUUUCGCCCCAUGCUGCAUCGUGUUGUAUUGGGAUGGGGCUGAGGAACAUGCUCCCUCCCUCCCUCCCAUAUGGAAUUCUCGGGUGCCAA	0.466
GGGAGUUCUACAGUCCGACGAUCCAGGUAGGACCUGAUAUUUCGGCGAGGGACCAUUUCAGACCAAAAUGUACUGUUAAUUUUUUUUAAUUAAAGUAUAUUAAAGGUUAAAUAAAACAUGACUGUGUCAGACUUGGAAUUCUCGGGUGCCAA	0.352
GGGAGUUCUACAGUCCGACGAUCCCUGGAACCAAACAUCAGAAUGCACACUAUUCUCCUAACAGUGAGCAUGGGGGGCAGGAGCCAGGGAGUCUAUUAGGUUCUAACCAACCUAGUUUUCAUUGUUGACAAGUUGGAAUUCUCGGGUGCCAA	0.292
GGGAGUUCUACAGUCCGACGAUCGCUCUCUACCCAGCCCAUCUUGCCUCCAUGGUGCCUCUGGAGGCCUCUGGGCCUCCUCUAACAGGGGCUGGUGGGCACCAAGAGCCAAUGGAGUAGACCCCUGGCUGGUAUGGAAUUCUCGGGUGCCAA	0.393

Sample 2 — method: RNA Bind-n-Seq; form: RNA; sample: in vitro; concentration: not given; notes: RNA with constant flanks, ends assumed; baseline: input RNA pool; direction: higher = stronger binding
Target: RING finger protein unkempt homolog, zinc fingers 1-6, GST-SBP tag (UNK, Homo sapiens, UniProt Q9C0B0, residues 30-357)
UniProt Q9C0B0, sequence (30-357, looked up): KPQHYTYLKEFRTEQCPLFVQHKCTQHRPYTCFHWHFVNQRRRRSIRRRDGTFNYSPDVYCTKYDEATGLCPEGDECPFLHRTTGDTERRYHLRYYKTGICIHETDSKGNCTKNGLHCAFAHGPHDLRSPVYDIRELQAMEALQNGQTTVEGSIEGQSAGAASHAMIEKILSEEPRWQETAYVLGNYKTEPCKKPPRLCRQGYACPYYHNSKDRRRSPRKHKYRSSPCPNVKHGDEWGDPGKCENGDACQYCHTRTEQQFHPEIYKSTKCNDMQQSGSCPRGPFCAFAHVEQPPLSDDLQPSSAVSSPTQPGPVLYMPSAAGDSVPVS
Constant ends, left off below: GGGAGUUCUACAGUCCGACGAUC … CAACAGAGGAUUGAGCAUCA
Sequence	bound/input enrichment [ratio]
GCACUAGGGUAGAGAGAAAGCGGCACCAGCCAACGGCCUCUGUGCACGUGUGUGCUCCCGCCGCUCAGAGCAGCAAGAAGAAAUGGUUUCCUAUCUGCUGAGGCAAGGGAUGGCACUCGG	0.321
AUCAUAAAAUACAUUGUCAACCGAGGAGAACACAAGAAUGGAGUUCUGGAAGAGGCAAUAACCGCAACAAUUCUUAAAGAGGUUUUGGAAGGCUUAGACUAUCUACACAGAAACGGUCAG	0.313
AGACGACGAGAAUAUCAAUUAUCUGACUCUACCAAAUACUAUCUUAAUGACUUGGACCGCGCCGCUGACCCUGCCUACCUGCCUACGCAACAAGAUGUGCUUAGAGUUCGAGUCCCCACC	0.305
GUCCCAGGCUCUCUGUUGACAGAGUUGGCUCUCUAGAGUCUCGUACUUUAUUCAUAAAUCCCGCCGGAGCGAGGACACAUUAGUAGAUGCAGAAGUGAAAUGUUUUCACUGUCACUGUGA	1.51
GAUGACAUCCACCGCUCCCUCAUGGUUGACCAUGUGACUGAGGUCAGUCAGUGGAUGGCCGGAGUUAAAAGAUUAAUUGCAGAAAAGAGGAGUCUGUUUUCAGAGGAGGCAGCCAAUGAA	0.322

Sample 3 — method: competition protein-binding microarray; form: double-stranded DNA, one strand shown; sample: in vitro; concentration: 2 µM; with: Cbf1 competitor, 0.05 µM; direction: higher = stronger binding; constant ends, left off below: … GTCTTGATTCGCTTGACGCTGCTG
Target: Phosphate system positive regulatory protein PHO4, full length, GST-tagged (PHO4, Saccharomyces cerevisiae, UniProt P07270, residues 1-312)
Notes: whole 60-bp probe, lowest competitor level
Target sequence (chain): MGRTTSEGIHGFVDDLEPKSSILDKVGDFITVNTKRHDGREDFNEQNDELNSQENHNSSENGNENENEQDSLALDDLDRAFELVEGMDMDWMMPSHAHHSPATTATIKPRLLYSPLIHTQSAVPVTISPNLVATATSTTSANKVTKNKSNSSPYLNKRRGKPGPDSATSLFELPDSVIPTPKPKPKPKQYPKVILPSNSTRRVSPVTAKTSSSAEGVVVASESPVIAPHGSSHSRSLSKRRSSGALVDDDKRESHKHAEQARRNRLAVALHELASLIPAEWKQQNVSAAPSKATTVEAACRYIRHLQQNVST
Sequence	fluorescence intensity
GCCCCAGGTTAGGACCACGTGGGTAAGAAGATTTCC	17000 a.u.
AAAGCGGTAATTTGAATGGTGGGTGCAGATATCTAT	4330 a.u.
GCCCAAAGACCCGGCCACGTTCAGGCCCCATCAATA	10300 a.u.
CGCTTGTACAAGCTGAACGTGAGAAGCAACGATCCT	6050 a.u.
AAAGCGGTAATTTGTCACATTACTTCACATATCTAT	3780 a.u.
CTTTCCCGATCTTGGCTGGTGGGTGTAGCACATTTG	4350 a.u.

Further values, each from its own experiment
Substance	target	test	system	conditions	scale	endpoint	result
PhoQ, residues 284 288 289 292 302 303 SMYGEC	PhoP, residues 12 14 15 18 19 AGCRL (Escherichia coli, UniProt P23836)	Sort-seq, measured: YFP reporter	E. coli	PhoQ-PhoP variant library, with: 10 µM Mg2+	baseline: high Mg2+ state, higher = stronger signaling	fold induction	6.51

For quick reference, copied from above (sample 1):
Sequence	RBNS enrichment (R)
GGGAGUUCUACAGUCCGACGAUCGCUCUCUACCCAGCCCAUCUUGCCUCCAUGGUGCCUCUGGAGGCCUCUGGGCCUCCUCUAACAGGGGCUGGUGGGCACCAAGAGCCAAUGGAGUAGACCCCUGGCUGGUAUGGAAUUCUCGGGUGCCAA	0.393
